Assay results of several laboratories.
Numbered parts are unrelated; each lists some results of a single study.

Block 1 — method: protein-binding microarray; form: double-stranded DNA, one strand shown; matrix: in vitro; tested at: 2200 nM top; notes: 60-bp whole probe; with: salmon DNA 0.4 mg/ml; reference: random background probes; reading: higher = stronger binding; all sequences stand within: GCCTAGCAC … GTCTTGATTCGCTTGACGCTGCTG
Target: Interferon regulatory factor 7, full length, phosphomimetic (IRF7, Homo sapiens, UniProt Q92985, residues 1-503, S471D/S472D/S475D/S476D/S477D/S483D/S484D/S487D)
Residues (chain): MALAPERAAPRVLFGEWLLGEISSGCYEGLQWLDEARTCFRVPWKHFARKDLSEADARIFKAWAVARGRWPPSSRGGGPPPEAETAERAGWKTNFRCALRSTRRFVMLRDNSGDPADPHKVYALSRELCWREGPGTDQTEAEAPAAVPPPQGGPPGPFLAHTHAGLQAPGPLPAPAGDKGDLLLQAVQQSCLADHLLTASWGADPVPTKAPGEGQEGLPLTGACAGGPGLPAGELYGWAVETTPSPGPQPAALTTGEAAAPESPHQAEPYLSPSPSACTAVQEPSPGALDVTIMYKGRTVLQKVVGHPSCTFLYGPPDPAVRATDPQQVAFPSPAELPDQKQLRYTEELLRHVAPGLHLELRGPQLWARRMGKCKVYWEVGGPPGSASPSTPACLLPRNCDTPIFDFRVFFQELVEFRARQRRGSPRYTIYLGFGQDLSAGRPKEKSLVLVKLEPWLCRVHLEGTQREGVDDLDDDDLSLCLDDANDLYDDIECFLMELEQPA
Strand | fitted relative affinity [z-score]
TACGGTTTCCTACTGCTGACGTGCTAG | 2.5
ACCAAAATCAAGTCTGGGCTAGTGCTA | -0.512
CTCCATGAACAGGGCTGATGGTGCTAG | -0.183
TTAAGTTTCGGGTATCGGTTAGTGCTA | 7.41
GCCGGACTGCTTCTCCTGACGTGCTAG | 0.236
GACGGACTGGGTATAGGGACGTGCTAG | -0.998
TGTGGCTTAGTTTGTCAAAAAGTGCTA | -0.293
TTAGGTTTCGACTTTCGGTTTGTGCTA | 15.3
GACGAACTGGGGTTGCGAGACGTGCTA | -0.256
GACGATTTCAGTTTCGACACGTGCTAG | 4.89
GACGGTATCTGTCTCGGGACGTGCTAG | 0.239
TTAGATATCGGGACTCGATTAGTGCTA | -0.207
GACGGTTACCTTCTCCTGACGTGCTAG | 1.16
TCATTTTTTTTCCTAATACTGTGCTAG | 1.96
TCATGAATGCCCTTCCATACTGTGCTA | 0.939
TCATGTCCTCCTCTCTCACTGTGCTAG | 2.22
GACGATATTAGTTTCGAGACGTGCTAG | 3.95
TCAATTTTTAGTTAGAAACTGTGCTAG | -0.117
TTAGGTTTCGGAATGGGTTAGTGCTAG | 6.28
AACGGACTGGGACTGGGGACGTGCTAG | -0.91
TCATATGCCGACTTTGGAACTGTGCTA | 0.435
TTACGTTTCGGGACTGGGTTAGTGCTA | 4.71
GGGCGGGTGCCAACTCTTAGGTGCTAG | -1.38
GACGAACTGAGACTGGGGACGTGCTAG | -0.315
ACTCATTTTCATTTTGTGTCGTGCTAG | 6.94

Block 2 — method: aptamer microarray, sandwich; form: DNA with 2'F-ANA; matrix: in vitro; tested at: 200 nM; with: Cy3 exosite-II aptamer, 400 nM; reading: higher = stronger binding; strand: GGTTGGTGTGGTTGG
Target: Prothrombin, mature alpha-thrombin (F2, Homo sapiens, UniProt P00734)
Notes: whole 15-mer aptamer, many near background
Modification | mean fluorescence intensity [a.u.]
2'F-ANA at 1 3 4 9 10 11 12 14 15 | 52.2
2'F-ANA at 1 2 3 5 7 8 10 12 14 | 44.2
2'F-ANA at 2 3 4 5 7 8 10 14 15 | 78.3
2'F-ANA at 1 2 5 6 8 9 11 12 13 14 15 | 71.2
2'F-ANA at 1 4 7 8 11 12 14 15 | 61.9
2'F-ANA at 2 3 4 6 8 10 11 12 13 | 191
2'F-ANA at 4 7 8 9 10 11 12 15 | 99.6
2'F-ANA at 2 3 4 5 7 8 10 13 14 | 47.7
2'F-ANA at 1 3 5 8 9 12 | 134
2'F-ANA at 2 3 4 6 10 13 | 206
2'F-ANA at 1 2 3 8 12 13 14 15 | 103
2'F-ANA at 3 4 6 7 8 10 11 14 | 161
2'F-ANA at 3 7 8 10 11 12 13 14 | 446
2'F-ANA at 2 3 5 7 8 9 11 14 15 | 52.7
2'F-ANA at 1 2 3 4 6 7 8 11 12 13 15 | 211
2'F-ANA at 4 6 10 12 13 14 | 58.9
2'F-ANA at 2 3 8 11 13 14 | 365
2'F-ANA at 1 2 6 7 9 11 12 14 15 | 71.6
2'F-ANA at 2 3 5 7 9 13 | 82
2'F-ANA at 2 3 4 5 6 7 8 9 10 11 12 13 15 | 54.6
2'F-ANA at 1 2 3 4 5 6 7 8 11 13 | 53.1
2'F-ANA at 1 3 4 6 7 8 9 11 14 | 72
2'F-ANA at 1 7 10 11 12 14 | 51.8
2'F-ANA at 1 2 3 4 5 6 7 11 12 14 15 | 52.4
2'F-ANA at 4 5 6 8 10 12 14 | 49.2

Block 3 — method: RNA Bind-n-Seq; form: RNA; matrix: in vitro; tested at: 365 nM; reference: no-protein control; reading: higher = stronger binding
Target: RNA binding protein fox-1 homolog 2, RRM domain, GST-SBP tag (RBFOX2, Homo sapiens, UniProt O43251-10, residues 100-194)
Notes: natural RNA segment, single round, ends assumed
All sequences stand within: GGGAGUUCUACAGUCCGACGAUC … UGGAAUUCUCGGGUGCCAA
Target sequence (chain): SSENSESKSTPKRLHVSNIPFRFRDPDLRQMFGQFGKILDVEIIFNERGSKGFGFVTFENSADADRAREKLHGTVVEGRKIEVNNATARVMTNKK
Strand | RBNS enrichment (R)
UGGGAUAUAGGAAAAGCAGUGGGCAGAGGCCUGACUGACCUGAUAUUCAAUCUGCACAAAGUCCAAGGUAUGCUAGGUUCACCAAAGUAGAUUUGCUGGACCUGAUCCCC | 0.405
AGUCCAGCCAUUUUCACCUCCCCUGGUCCAUGCUCAGGAAGUCUGGUCACCCUGGCAAACUGCACCUGACAUUGAGGUCCCUUUUCACCAAAGAUGCACAAGGUGUCCAU | 0.292
UCCCCAGUCGAUUGGGACACAGUCUCUCUUUGUCUAGGUAACACAUGGUGACACAUAGCAUUGAACUCUCCACUCUGAGGGUGGGUUUCCCUCCCCCUGCCUCUUCUGGG | 0.563
AUCCUAGGUGCCCCCAGUGCACUGUCCUUGUCUGUCUGAAGCACCCAUCUCUACCUUCCCUGGCCAGUCCUCUGACGGUUCACAAGGGCCAGAGAUAUGGACUUUAUUUU | 0.282
AUGCCUUAUUUAUGUAUUCAUGUUAAAAUUUAGAAUUAUUUUAAAUAAAAACUUUCUCUUAAAGCUUACUGCUUUUGAAUUUAUAACCUAAAACCUGAGAAAAGGGAAUA | 0.801
GAGUGUGUGUGUAUGUGUGUGUGUAUGUAAGUCCCCUGUGUGGGUCCAGUUUCAAGGCAUGUACAAUAAGCAUGGAGUCGUAUUGAUGAGGACUUACCUCCUGAAGAUAU | 0.921
GAAAUUAACUGUAUAUCAUUCCAGUACAUUCCGUUGUACAUUUUAGUCUCCGUUUACUUUCUCUUCAUUGUUGAUAAGAGAAUGCCAAGCUGCGCGUUGUUCAGGCAGUU | 1.22
UGUAAUGAUUUGCUUCUGCACCUUGGUCUAGUGCUGGUUUGUGGUGUUUUUGUUUGUAAAUUAGCCUCACUGCCUCCCUGAAAGUGCACAGUCAGCCCAGGUCUCUAGAG | 0.47
UGGUUUAUUGGAUGUGAUGGACGUUCUGUAAUAGAAAACCUGAAACGAUGAUUGAAUGGGAAAAAGAGACUACAAAAUUUGUCGUAGGAUGUAUACAGACUUAUUUUCUU | 1.05
GCUGCCUCAUGUGACUGCCGUGCCUGUGAAUACGCAGAACCAGGACUCCACCCCACCGUGGAAAGGGAGCUUGAAGCAGAAAAGAGGGCGCCUCGGAGCCAAUGUUGAGC | 0.445
GAGCCCCAAUUCUGCUUUCCCACAAAAUAAACCUAAUGCCAUCAGGCAAAACAUUUCUGUGUCUGUAUCUGCCCUGGUAUAUUCUCAUUCCUGGGGUCACAUCCUGCCUA | 0.613
AGUCCUCCCAAAACUUCCUACCCACACCCUCUUCCCAAGGCCCUCAGGGGCAGAAAACAUCUCCUUCAACCCGUCCCCACUCCUUCCUCUGCAUGACCUUGGGCAAACCC | 5.03

Block 4 — method: EMSA with sequencing; form: double-stranded DNA, one strand shown; matrix: in vitro; tested at: 10 and 20 nM; reference: negative control set to 0; reading: higher = stronger binding
Target: Hepatocyte nuclear factor 3-alpha (Foxa1, Mus musculus, UniProt P35582, residues 1-468, full length assumed)
Notes: whole designed probe, mean of two concentrations, ends assumed
All sequences stand within: GTGAGCGGTGCCCATTGATGGGGAAC … TTTCACTGGGATCGTGGGGAC
Construct (chain): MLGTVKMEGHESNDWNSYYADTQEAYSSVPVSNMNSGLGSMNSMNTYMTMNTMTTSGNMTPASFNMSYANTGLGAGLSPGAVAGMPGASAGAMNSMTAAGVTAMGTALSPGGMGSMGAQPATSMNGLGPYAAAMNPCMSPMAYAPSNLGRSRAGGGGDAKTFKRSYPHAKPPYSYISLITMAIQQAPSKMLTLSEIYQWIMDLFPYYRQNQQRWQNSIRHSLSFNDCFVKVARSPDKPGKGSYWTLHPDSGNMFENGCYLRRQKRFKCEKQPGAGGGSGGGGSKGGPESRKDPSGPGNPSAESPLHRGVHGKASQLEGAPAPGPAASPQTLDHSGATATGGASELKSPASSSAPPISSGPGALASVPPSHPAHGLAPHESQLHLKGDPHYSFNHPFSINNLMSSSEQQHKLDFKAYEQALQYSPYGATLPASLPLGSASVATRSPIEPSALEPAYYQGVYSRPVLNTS
Strand | normalised bound fraction
TTTTTCATGTATAAATATATAATTTTATTTAATATTTAGATTTTATTCTTTTCTCTGAATTCATTATATACTACAAAAGTTATGGCATCTCAATGTAATCTCAGATGCAGAAGAAAAGAGTTCTAATACCTTTATTACCTAAGAAGATAAAATATCATAGATGTGTGGAATTAAAAGAAAATTATCAAAGTCC | 0.15 ratio
ATATTCAGCAGAGTGGTCCTAGGTAGAACATTCTGTGTCAAAATATCAAAAGGCATTGACAAGAGAAATCGACAGAGAATTAGGTTAGCAGAGTAATCTGGTATTCTGTAACCTTCTCAAGTGCTGTGCCTGCTTAGGGAAATACTATTCTTATAAAGTCTTATTCTTCCGCATAATGAATAGTCATTTCCAC | -0.0766 ratio
ATCTTCCCCCTCTTCCTTGCCCCACCAGCTCACCTTCCCGGGTTATTTGCAGATAGGAAAATAAATAAAGCCGGCATTCGTTAACCCTCTTCTGGCGCAAACTGCACATTGGTCTGGATCTAACATGGTCCTTTGGCGACGCCAGGCTCCGGGAGAGCAAAGCACCGTGTCAGGGCCATGATCCGGGGTGGCC | 0.337 ratio
AACAGGAAATTCCTGGCTATTTTACAGATATAAGTACAGAATTTAAATATTCAAGCTTGTGATGAAAAGCGGCAAGGTGGTCGCAGTGTACAATGTAATCTAGTAGCTTTGGAAATGAACAAAGTCCTTGAGTGTTTTTCTTTATTAAGAAAGAACTCTCTTTCATTCCTTCCTGAAACATGATCACAGGTCA | -0.0437 ratio
CACTAGCCAAGCAAATGCTACCTTTCCTAAATTACGCCGTGGTATTGTGTACGACAGCAGCAGGGTTGCTATTTTAAAATGGGATTGCGTAAAATAAACATGTGCCCAACAGGAAGTAGATGCTAAGTTGATGATTAATTGATGCTCTGGTACGGCCTCGTGCTTTCCAGTGCTTCCATTTGTGTGACGATCC | 0.242 ratio
ATCTTCCCCCTCTTCCTTGCCCCACCAGCTCACCTTCCCGGGTATCTGCAAATAAGCAAAGTAAACAAAGCCGGCATTCGTTAACCCTCTTCTGGCGCAAACTGCCAGAGCAAACAGATGAATCATGGTCCTTTGGCGACGCCAGGCTCCGGGAGAGCAAAGCACCGTGTCAGGGCCATGATCCGGGGTGGCC | 0.514 ratio
GGAGCTAAAAATCAGCTTGTCTGAAAATTCTCATAAAATTTGCAAAACCCTGAAACTGAAAGTTCTGCAGTGCAGAGGCATTTCCATGCAATGTAATCTAGGTCAGTTAGGGCCTCTTGGAACTATGCTGGGATGGGGGCCACTGTCAGTCAAGCTACTGTTGGGCTTGGGATGAGGATGGAGGGAACTGACC | -0.0861 ratio
GCCACAGTTCAAGTTCAAAGAGAAACACTCTAGCAACTTCTGAAAGCAGGAACTGTATGCAACTGAAAGTCCACTTCCGGCACAGAAGCCAGAGCAAACAATGAAAAACAAACCGTACCAACTCTGGTACCAGTTACTGACCTTCCAGACCAAGAGAACGTGCTGGCAGCACTGGTGAAATGTACTTGTCTGT | 0.262 ratio

A few entries again (block 1):
Strand | fitted relative affinity [z-score]
ACCAAAATCAAGTCTGGGCTAGTGCTA | -0.512
CTCCATGAACAGGGCTGATGGTGCTAG | -0.183
TTAAGTTTCGGGTATCGGTTAGTGCTA | 7.41
GCCGGACTGCTTCTCCTGACGTGCTAG | 0.236
GACGGACTGGGTATAGGGACGTGCTAG | -0.998
TGTGGCTTAGTTTGTCAAAAAGTGCTA | -0.293
TTAGGTTTCGACTTTCGGTTTGTGCTA | 15.3
GACGAACTGGGGTTGCGAGACGTGCTA | -0.256
